Results of several laboratories.
Each numbered part is a random draw from the data of one study; scales do not carry over between parts. “And” joins repeats or separate records; there may be more than shown.
UniProt Q8IYT8, sequence (whole entry, looked up): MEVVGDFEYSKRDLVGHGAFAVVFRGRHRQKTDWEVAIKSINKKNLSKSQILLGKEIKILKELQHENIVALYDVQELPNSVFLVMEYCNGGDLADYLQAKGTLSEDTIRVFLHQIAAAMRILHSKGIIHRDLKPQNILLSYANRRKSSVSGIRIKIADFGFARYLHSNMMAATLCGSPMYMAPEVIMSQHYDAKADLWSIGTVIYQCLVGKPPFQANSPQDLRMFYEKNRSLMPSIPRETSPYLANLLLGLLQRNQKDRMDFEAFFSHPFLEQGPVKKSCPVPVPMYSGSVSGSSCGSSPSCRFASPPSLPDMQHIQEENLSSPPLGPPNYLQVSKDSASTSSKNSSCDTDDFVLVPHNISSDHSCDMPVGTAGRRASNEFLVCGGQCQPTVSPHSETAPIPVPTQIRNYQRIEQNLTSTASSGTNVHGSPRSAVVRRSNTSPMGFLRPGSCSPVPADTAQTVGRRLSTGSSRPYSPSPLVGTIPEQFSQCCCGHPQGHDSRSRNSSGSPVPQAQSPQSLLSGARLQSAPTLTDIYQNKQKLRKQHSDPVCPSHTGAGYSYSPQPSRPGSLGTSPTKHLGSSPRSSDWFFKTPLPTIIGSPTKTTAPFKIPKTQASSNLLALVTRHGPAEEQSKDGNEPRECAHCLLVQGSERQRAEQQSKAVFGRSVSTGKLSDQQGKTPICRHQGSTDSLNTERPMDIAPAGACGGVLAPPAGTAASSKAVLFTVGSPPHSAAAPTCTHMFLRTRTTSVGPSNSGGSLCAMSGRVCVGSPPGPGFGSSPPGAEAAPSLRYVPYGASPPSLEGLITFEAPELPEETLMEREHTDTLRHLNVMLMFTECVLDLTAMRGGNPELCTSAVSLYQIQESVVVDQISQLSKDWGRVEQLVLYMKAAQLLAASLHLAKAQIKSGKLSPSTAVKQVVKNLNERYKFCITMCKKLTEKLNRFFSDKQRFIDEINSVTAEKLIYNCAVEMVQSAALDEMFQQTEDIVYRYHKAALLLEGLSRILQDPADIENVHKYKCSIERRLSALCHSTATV
UniProt P30291, sequence (whole entry, looked up): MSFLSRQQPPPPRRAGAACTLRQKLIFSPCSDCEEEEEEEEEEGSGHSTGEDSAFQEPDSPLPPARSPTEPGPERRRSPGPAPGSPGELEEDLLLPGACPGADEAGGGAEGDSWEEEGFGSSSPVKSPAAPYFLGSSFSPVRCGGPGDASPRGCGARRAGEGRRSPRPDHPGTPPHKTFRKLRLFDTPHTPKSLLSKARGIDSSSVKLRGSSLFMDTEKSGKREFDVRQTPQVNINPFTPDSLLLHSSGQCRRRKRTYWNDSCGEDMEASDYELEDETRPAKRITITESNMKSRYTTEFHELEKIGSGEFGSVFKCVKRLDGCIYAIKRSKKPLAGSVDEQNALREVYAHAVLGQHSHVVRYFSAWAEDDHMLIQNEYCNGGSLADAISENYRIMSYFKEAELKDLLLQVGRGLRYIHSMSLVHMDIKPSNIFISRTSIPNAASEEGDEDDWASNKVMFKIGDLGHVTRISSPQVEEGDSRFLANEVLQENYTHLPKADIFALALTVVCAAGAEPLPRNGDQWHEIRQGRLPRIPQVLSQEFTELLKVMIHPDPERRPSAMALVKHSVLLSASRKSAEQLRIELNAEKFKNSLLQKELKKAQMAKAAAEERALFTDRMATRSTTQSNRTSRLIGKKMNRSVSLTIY
UniProt Q9H2X6, sequence (whole entry, looked up): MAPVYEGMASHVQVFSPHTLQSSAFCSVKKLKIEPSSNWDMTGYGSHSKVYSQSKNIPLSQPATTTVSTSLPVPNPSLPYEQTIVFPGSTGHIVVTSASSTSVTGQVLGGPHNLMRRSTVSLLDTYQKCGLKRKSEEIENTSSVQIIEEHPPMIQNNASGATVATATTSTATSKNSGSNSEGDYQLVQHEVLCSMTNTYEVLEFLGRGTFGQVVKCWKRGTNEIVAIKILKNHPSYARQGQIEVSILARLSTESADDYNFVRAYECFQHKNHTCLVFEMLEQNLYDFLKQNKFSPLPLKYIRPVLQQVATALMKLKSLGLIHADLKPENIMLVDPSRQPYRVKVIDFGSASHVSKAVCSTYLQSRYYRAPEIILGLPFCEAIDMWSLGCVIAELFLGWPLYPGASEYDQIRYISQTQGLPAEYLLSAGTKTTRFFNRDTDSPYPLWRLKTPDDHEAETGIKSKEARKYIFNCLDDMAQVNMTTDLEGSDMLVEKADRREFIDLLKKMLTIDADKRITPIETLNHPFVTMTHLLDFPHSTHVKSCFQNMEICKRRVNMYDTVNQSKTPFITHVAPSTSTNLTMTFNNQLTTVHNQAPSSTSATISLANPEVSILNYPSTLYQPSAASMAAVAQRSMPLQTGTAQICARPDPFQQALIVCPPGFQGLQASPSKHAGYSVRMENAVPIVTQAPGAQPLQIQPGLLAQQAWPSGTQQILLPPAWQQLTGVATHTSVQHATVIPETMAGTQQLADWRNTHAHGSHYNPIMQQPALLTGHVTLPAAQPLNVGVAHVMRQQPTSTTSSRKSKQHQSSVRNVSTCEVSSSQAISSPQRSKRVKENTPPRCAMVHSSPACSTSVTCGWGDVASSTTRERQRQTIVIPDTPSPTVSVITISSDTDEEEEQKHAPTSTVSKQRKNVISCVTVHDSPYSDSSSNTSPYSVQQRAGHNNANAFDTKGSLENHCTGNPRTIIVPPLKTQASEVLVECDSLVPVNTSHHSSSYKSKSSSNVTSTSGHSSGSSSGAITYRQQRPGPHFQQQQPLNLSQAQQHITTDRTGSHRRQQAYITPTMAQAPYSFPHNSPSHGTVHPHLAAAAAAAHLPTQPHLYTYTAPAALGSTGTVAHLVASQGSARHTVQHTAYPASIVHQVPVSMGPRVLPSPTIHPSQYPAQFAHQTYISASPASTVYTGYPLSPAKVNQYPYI
UniProt P21860, sequence (whole entry, looked up): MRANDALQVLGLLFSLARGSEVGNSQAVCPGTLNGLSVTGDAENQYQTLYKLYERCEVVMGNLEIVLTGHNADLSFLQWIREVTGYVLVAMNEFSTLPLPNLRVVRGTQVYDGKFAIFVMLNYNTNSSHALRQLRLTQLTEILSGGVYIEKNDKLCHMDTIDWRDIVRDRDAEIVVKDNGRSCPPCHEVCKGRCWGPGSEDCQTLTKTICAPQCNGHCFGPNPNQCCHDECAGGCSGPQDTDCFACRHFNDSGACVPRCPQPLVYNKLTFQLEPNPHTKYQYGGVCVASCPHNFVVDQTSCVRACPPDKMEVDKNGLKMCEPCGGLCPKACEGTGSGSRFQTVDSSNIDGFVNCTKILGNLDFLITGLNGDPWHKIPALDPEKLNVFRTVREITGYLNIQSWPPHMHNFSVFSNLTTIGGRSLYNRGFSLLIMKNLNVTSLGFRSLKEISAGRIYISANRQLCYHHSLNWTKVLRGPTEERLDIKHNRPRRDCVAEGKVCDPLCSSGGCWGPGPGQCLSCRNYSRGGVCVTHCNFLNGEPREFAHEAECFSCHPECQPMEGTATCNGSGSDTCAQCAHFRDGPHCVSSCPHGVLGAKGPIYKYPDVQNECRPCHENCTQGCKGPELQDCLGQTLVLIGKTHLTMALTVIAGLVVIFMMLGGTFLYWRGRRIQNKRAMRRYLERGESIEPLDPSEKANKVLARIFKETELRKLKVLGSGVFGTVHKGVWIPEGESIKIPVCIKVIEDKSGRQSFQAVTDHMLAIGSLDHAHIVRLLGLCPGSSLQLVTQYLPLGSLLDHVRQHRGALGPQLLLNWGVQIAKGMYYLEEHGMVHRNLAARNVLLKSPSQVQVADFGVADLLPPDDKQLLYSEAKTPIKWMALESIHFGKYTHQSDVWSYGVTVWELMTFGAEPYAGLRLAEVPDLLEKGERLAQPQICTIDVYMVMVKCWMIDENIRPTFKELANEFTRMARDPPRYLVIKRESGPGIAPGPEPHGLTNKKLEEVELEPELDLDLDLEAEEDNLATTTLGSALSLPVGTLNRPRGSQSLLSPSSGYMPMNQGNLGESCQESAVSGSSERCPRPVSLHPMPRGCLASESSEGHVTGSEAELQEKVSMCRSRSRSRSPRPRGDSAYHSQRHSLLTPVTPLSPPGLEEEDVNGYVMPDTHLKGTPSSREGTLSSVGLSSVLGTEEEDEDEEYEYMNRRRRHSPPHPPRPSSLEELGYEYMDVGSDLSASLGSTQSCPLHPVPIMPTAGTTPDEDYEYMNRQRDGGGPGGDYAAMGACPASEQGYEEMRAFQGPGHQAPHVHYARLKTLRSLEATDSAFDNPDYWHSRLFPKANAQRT
UniProt P22607, sequence (whole entry, looked up): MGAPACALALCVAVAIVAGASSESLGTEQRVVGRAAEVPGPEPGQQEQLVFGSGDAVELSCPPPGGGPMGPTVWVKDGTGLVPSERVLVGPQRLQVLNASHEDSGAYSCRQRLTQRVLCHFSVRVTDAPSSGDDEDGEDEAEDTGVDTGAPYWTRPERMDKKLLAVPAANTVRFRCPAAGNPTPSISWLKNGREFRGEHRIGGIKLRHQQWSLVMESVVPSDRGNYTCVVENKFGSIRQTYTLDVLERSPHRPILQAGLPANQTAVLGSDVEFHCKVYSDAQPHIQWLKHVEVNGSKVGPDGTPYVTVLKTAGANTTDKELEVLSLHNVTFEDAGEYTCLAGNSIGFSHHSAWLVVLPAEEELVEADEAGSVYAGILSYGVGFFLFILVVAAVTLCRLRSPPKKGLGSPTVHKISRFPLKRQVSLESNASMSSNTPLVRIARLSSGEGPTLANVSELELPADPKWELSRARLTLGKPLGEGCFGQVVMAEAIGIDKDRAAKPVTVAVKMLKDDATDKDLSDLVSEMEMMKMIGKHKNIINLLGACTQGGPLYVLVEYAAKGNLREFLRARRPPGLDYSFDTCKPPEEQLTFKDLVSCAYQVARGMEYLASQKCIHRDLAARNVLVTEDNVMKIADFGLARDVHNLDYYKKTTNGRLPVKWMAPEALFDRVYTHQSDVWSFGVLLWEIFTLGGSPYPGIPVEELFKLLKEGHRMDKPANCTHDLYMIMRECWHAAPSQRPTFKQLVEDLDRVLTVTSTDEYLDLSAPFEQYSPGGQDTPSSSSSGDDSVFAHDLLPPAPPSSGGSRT

Sample 1
Host: human
Medium: microsomes or S9
Tested at: 2 µM
Time: 0.5 h
Endpoint: remaining compound
COC(=O)c1ccc(-c2nc3c(N)nc(S(C)(=O)=O)nc3n2C)cc1: 6.82%
COC(=O)c1ccc2c(c1)OC(CC(=O)Nc1ccc(N)cc1)C(=O)N2 (stereo not shown): 68.5%
COc1cc(OC)c2[nH]c(C(=O)OCc3ncc(Cl)n3C)cc2c1: 2.63%
Cc1cc(C)c(N(C)S(=O)(=O)c2ccc3c(c2)C(=O)Nc2ccc(C)cc2O3)c(C)c1: > 100%
CSC1=N/C(=C\c2ccc(C(=O)O)cc2)C(=O)S1: > 99%
CCOC(=O)C1=C(n2cc(-c3ccccc3)nn2)Cc2ccccc2O1: 82.9%
Cn1c(=O)nc(O)c2c1nc(NCCN)n2CC(O)COc1ccccc1 (stereo not shown): 82.3%
CN(C)c1cncc(-c2cccc(-n3cccn3)c2)n1: 1.65%

Sample 2
Compound: CO[C@H]1CC[C@H](CNc2ccc(S(=O)(=O)NC(=O)c3ccc(N4CCN(CC5=C(c6ccc(Cl)cc6)CC(C)(C)CC5)CC4)cc3Oc3cnc4[nH]ccc4c3)cc2[N+](=O)[O-])CC1
Observed: cell-free assay
Technique: competition with immobilised ligand
Tested at: 1 µM
Endpoint: remaining binding
HIPK2 (Homo sapiens, UniProt Q9H2X6): 100%
EPHB1 (Homo sapiens, UniProt P54762): 84%
YES1 (Homo sapiens, UniProt P07947): 88%
EGFR (Homo sapiens, UniProt P00533, L861Q): 70%
NLK (Homo sapiens, UniProt Q9UBE8): 100%
ERBB3 (Homo sapiens, UniProt P21860): 100%

Sample 3
Cell line: mouse MPNST tumor cells
Technique: high-content nuclear imaging
Refers to: cell number
Tested at: 10 µM
Time: 12 h
Notes: mean of 2 replicates
Baseline: plate mean
Reading: higher = more cells
Endpoint: nuclei count
c1ccc2c(c1)Cc1c(Nc3ccc4c(c3)OCCO4)n[nH]c1-2: -4.21 z-score
Cc1c(NC(=O)N2CCOCC2)ccc2c1c1ccccc1n2C(C)C: 1.87 z-score
CC(=O)CC(c1ccc([N+](=O)[O-])cc1)c1c(O)c2ccccc2oc1=O (stereo not shown): 1.69 z-score
Clc1ccc2c(c1)C(N1CCNCC1)=Nc1ccccc1O2: -2.72 z-score and -3.57 z-score
Cc1ccccc1NC(=O)Nc1ccc(CC(=O)N(C)[C@@H](CC(C)C)C(=O)NCC[C@H](NC(=O)[C@@H]2CCCN2S(=O)(=O)c2cc(Cl)cc(Cl)c2)C(=O)O)cc1: 0.724 z-score

Sample 4
Cell line: HH
Tested at: 2 µM
Time: 48 h
Baseline: untreated
Endpoint: viability
COc1cc(N2CCC(N)CC2)ccc1Nc1ncc(Cl)c(-c2c[nH]c3ccccc23)n1: 80.1%
O=C1NC(=O)[C@@H](c2cn3c4c(cccc24)CCC3)[C@@H]1c1c[nH]c2ccccc12: 14.7%
Clc1ccc(Nc2nnc(Cc3ccncc3)c3ccccc23)cc1: 81.2%
Cc1[nH]c(/C=C2\C(=O)Nc3ccccc32)c(C)c1CCC(=O)O: 137%
O=S(=O)(c1cccc2cnccc12)N1CCCNCC1: 68.3%
N#Cc1c(Oc2ccc(F)c(NC(=O)Cc3cccc(C(F)(F)F)c3)c2)ccc2nc(NC(=O)C3CC3)sc12: 95%
Cn1sc(=O)n(Cc2ccccc2)c1=O: 95.5%
CC(C)(C)c1ccc(S(=O)(=O)/C=C/C#N)cc1: 71.3%

Sample 5
Compound: O=c1cc(-c2cccc3c2Sc2ccccc2S3)oc(N2CCOCC2)c1
Observed: enzyme activity
Action: inhibitor
Tested at: 0.5 µM
Baseline: control
Endpoint: remaining activity
TEK (Homo sapiens, UniProt Q02763): 100%
MAPK3 (Homo sapiens, UniProt P27361): 118%
TAOK2 (Homo sapiens, UniProt Q9UL54): 101%
FGFR3 (Homo sapiens, UniProt P22607): 94.7%
MAPKAPK2 (Homo sapiens, UniProt P49137): 94.2%
CSNK1G2 (Homo sapiens, UniProt P78368): 93.3%
MAP3K5 (Homo sapiens, UniProt Q99683): 104%
ABL2 (Homo sapiens, UniProt P42684): 92%
FGFR1 (Homo sapiens, UniProt P11362): 99.2%
JAK3 (Homo sapiens, UniProt P52333): 108%
MST1R (Homo sapiens, UniProt Q04912): 111%
EPHA3 (Homo sapiens, UniProt P29320): 119%
MAP3K14 (Homo sapiens, UniProt Q99558): 94.9%
TBK1 (Homo sapiens, UniProt Q9UHD2): 88.5%
ULK2 (Homo sapiens, UniProt Q8IYT8): 123%
CSNK1G3 (Homo sapiens, UniProt Q9Y6M4): 87.9%
WEE1 (Homo sapiens, UniProt P30291): 98.3%
MAP2K2 (Homo sapiens, UniProt P36507): 81.8%
GRK7 (Homo sapiens, UniProt Q8WTQ7): 99.2%
RPS6KA2 (Homo sapiens, UniProt Q15349): 81.4%
NEK6 (Homo sapiens, UniProt Q9HC98): 103%
NEK1 (Homo sapiens, UniProt Q96PY6): 100%

For quick reference, copied from above (sample 5):
TBK1 (Homo sapiens, UniProt Q9UHD2): 88.5%
ULK2 (Homo sapiens, UniProt Q8IYT8): 123%
CSNK1G3 (Homo sapiens, UniProt Q9Y6M4): 87.9%
WEE1 (Homo sapiens, UniProt P30291): 98.3%
